Measurements from different studies.
Cell line: SW-620

SMILES | assay | system | conditions | scale | endpoint | value
CCn1cc(-c2cc(Cn3ccoc3=N)cc3c2CCN([C@@H](C)c2cc(OC)ccn2)C3=O)c(C(F)(F)F)n1 | cell growth, inhibitor |  | 120 h |  | EC50 | 0.0119 µM
O=c1ccn(Cc2cn(-c3c4ccccc4nc4ccccc34)nn2)c(=O)[nH]1 | NCI60 single-dose screen |  | 10 µM |  | growth percentage | 93%
O=C(Nc1nnc2n3c(=S)[nH][nH]c3nc(-c3ccc(Cl)cc3)c1-2)c1ccccc1 | SRB |  | 10 µM, NCI60 single-dose screen, colon cancer | baseline: untreated | cell growth | 106%
CCCCN1CCN(c2ccc3[nH]c(-c4ccc5[nH]c(-c6ccc(OCC)cc6)nc5c4)nc3c2)CC1 | SRB |  | 10 µM, 48 h |  | growth percent | 8.61%
O=C1NCCc2[nH]c(-c3ccncc3)cc21 | MTS | colon cancer |  |  | IC50 | 3.93 µM
Cc1cc(=O)[nH]c(=O)n1Cc1cn(-c2cc3ccccc3oc2=O)nn1 | NCI60 single-dose screen |  | 10 µM |  | growth percentage | 99.3%
O=P1(C2CCCCC2)CCCCC1 | MTT |  | 72 h | baseline: IC50 HaCaT over IC50 SW-620 | selectivity index | 6.2
Cn1cncc1C1=CN(c2ncnc3[nH]cnc23)CCS1 |  |  | colon cancer |  | TGI | 40.7 µM
CCCN1CCN(c2ccc3[nH]c(-c4ccc5[nH]c(-c6ccc(OCC)c(OCC)c6)nc5c4)nc3c2)CC1 | SRB |  | 10 µM, 48 h |  | growth percent | -65.9%
O=C(/C=C/C=C/C=C/C1CCCCC1)NC1=C[C@@](O)(/C=C/C=C/C=C/C(=O)NC2=C(O)CCC2=O)[C@@H]2O[C@@H]2C1=O | cell growth, CellTiter-Glo |  | 78 h |  | GI50 | 20.9 µM
CCCCN1CCN(c2ccc3[nH]c(-c4ccc5[nH]c(-c6ccc(OCC)c(OCC)c6)nc5c4)nc3c2)CC1 | SRB |  | 10 µM, 48 h |  | growth percent | -80.3%
Nc1ncnc2c1ncn2C1CCCC1 |  |  | 100 µM, 96 h | baseline: DMSO | decrease of IP6 level | ~4 fold
CCCN1CCN(c2ccc3[nH]c(-c4ccc5[nH]c(-c6cc(OC)c(OC)c(OC)c6)nc5c4)nc3c2)CC1 | SRB |  | 10 µM, 48 h |  | growth percent | 75.7%
C#C[C@@]1(O)[C@@H](CO)O[C@@H](n2cc(F)c3c(N)ncnc32)[C@@H]1O | SRB |  | NCI-60 screen |  | TGI | 2.9 µM
Cc1n[nH]c2nc(-c3ccc(Cl)cc3)c3c(NC(=O)c4ccccc4)nnc-3n12 | SRB |  | 10 µM, NCI60 single-dose screen, colon cancer | baseline: untreated | cell growth | 106%
C#C[C@@]1(O)[C@@H](CO)O[C@@H](n2cc(I)c3c(N)ncnc32)[C@@H]1O | SRB |  | NCI-60 screen |  | TGI | > 100 µM
CCCCN1CCN(c2ccc3nc(-c4ccc5nc(-c6cc(OC)ccc6OC)[nH]c5c4)[nH]c3c2)CC1 | SRB |  | 10 µM, 48 h |  | growth percent | 105%
O=C(Nc1nnc2n3c(Cc4ccccc4)n[nH]c3nc(-c3ccc(Cl)cc3)c1-2)c1ccccc1 | SRB |  | 10 µM, NCI60 single-dose screen, colon cancer | baseline: untreated | cell growth | 101%
COc1cccc2c1C(=O)c1c(O)c3c(c(O)c1C2=O)C[C@@](O)(C(=O)CO)C[C@@H]3O[C@H]1C[C@H](N)[C@H](O)[C@H](C)O1 | MTT |  | 72 h | baseline: IC50 HaCaT over IC50 SW-620 | selectivity index | 1
COc1cnc2cccc(N3CCc4c(cc(Cn5ccnc5C)cc4-c4cn(C)nc4C(F)(F)F)C3=O)c2c1 | cell growth, inhibitor |  | 120 h |  | EC50 | 0.0272 µM
CCCCN1CCN(c2ccc3[nH]c(-c4ccc5[nH]c(-c6cc(OC)c(OC)c(OC)c6)nc5c4)nc3c2)CC1 | SRB |  | 10 µM, 48 h |  | growth percent | 60.3%
CSc1nc(-c2ccc(Cl)cc2)c2c(NC(=O)c3ccccc3)nnc-2[nH]1 | SRB |  | 10 µM, NCI60 single-dose screen, colon cancer | baseline: untreated | cell growth | 105%
Cc1cc(C)n(C(=S)[S][Au][PH](CCCCCC[PH]([Au][S]C(=S)n2nc(C)cc2C)(c2ccccc2)c2ccccc2)(c2ccccc2)c2ccccc2)n1 | cell growth, NCI-60 screen |  | colon cancer |  | log10 TGI | > -4
Cc1cc(=O)[nH]c(=O)n1Cc1cn(-c2c3ccccc3nc3ccccc23)nn1 | NCI60 single-dose screen |  | 10 µM |  | growth percentage | 83.9%
O=C(Nc1nnc2n3c(nc(-c4ccc(Cl)cc4)c1-2)SCC3=O)c1ccccc1 | SRB |  | 10 µM, NCI60 single-dose screen, colon cancer | baseline: untreated | cell growth | 101%
CCN(CC)c1ccc(C=NNC(=O)CSc2nc3ccccc3c(=O)n2Cc2ccc(S(N)(=O)=O)cc2)c(O)c1 | NCI five-dose screen |  |  |  | TGI | > 100 µM

Excerpt of the above:
SMILES | assay | system | conditions | scale | endpoint | value
O=c1ccn(Cc2cn(-c3c4ccccc4nc4ccccc34)nn2)c(=O)[nH]1 | NCI60 single-dose screen |  | 10 µM |  | growth percentage | 93%
CCCN1CCN(c2ccc3[nH]c(-c4ccc5[nH]c(-c6cc(OC)c(OC)c(OC)c6)nc5c4)nc3c2)CC1 | SRB |  | 10 µM, 48 h |  | growth percent | 75.7%
Nc1ncnc2c1ncn2C1CCCC1 |  |  | 100 µM, 96 h | baseline: DMSO | decrease of IP6 level | ~4 fold
CCCCN1CCN(c2ccc3[nH]c(-c4ccc5[nH]c(-c6ccc(OCC)cc6)nc5c4)nc3c2)CC1 | SRB |  | 10 µM, 48 h |  | growth percent | 8.61%
